Results from different studies.
Protocols differ between the studies behind these lines. ≈ marks a conversion by molar mass, not a printed value.

`O=C(CN1CCCC2=CC3CC(CN4CCCCC34)C21)Nc1cc(Cl)cc(OC(F)(F)F)c1` (stereo not shown) has an EC50 of 21.8 µM (vesicular stomatitis virus; pseudovirus entry; VSV G pseudovirus).
`CCCCCCCCCC(=O)NCC(=O)N[C@@H](CC(C)C)C(=O)N[C@@H](CC(C)C)C(=O)N[C@@H](CCCCN)C(=O)N[C@@H](CCCNC(=N)N)C(=O)N[C@H](C(=O)N[C@@H](CCCCN)C(=O)N[C@H](C(=O)N[C@@H](CC(C)C)C(=O)N[C@@H](CC(C)C)C(=O)NCCCC[C@H](NC(=O)[C@H](CC(C)C)NC(=O)[C@H](CC(C)C)NC(=O)[C@@H](NC(=O)[C@H](CCCCN)NC(=O)[C@@H](NC(=O)[C@H](CCCNC(=N)N)NC(=O)[C@H](CCCCN)NC(=O)[C@H](CC(C)C)NC(=O)[C@H](CC(C)C)NC(=O)CNC(=O)CCCCCCCCC)[C@@H](C)CC)[C@@H](C)O)C(N)=O)[C@@H](C)O)[C@@H](C)CC` — result for “geometric mean MIC”: 169 µM (five bacterial species; bacterial growth).
For `COc1ccc2nc(C)cc(OCC(=O)Nc3ccccc3OC)c2c1`, the MIC was 1.4 µM (≈ 0.493 µg/mL) (Mycobacterium tuberculosis variant bovis BCG; microbial growth; BCG).
For `CCC(=C(c1ccc(Cl)cc1)c1ccc(OCCN2CCCC2)cc1)c1ccc(OC)cc1`, the EC50 was over 3.2 µg/mL (influenza A virus H1N1; cytopathic effect, visual CPE; MDCK).
`CN[C@](C)(C[18F])C(=O)O` has a tracer uptake of 4.1 %ID/g (A549 tumour model; host not given, kidney; 1 h, tumour-bearing).
`C[C@@](O)(C(F)F)[C@H](NC(=O)c1ccc(C#CC#CC2CC2)cc1)C(=O)NO` has an MIC90 of 0.125 µg/mL (≈ 0.332 µM) (Yersinia).
With `C1=C2CCCN(Cc3ccccc3)C2C2CC1C1CCCCN1C2` (stereo not shown) the EC50 was 68.9 µM (vesicular stomatitis virus; pseudovirus entry; VSV G pseudovirus).
Under “geometric mean MIC”, `CCCCCC(=O)NCC(=O)N[C@@H](CC(C)C)C(=O)N[C@@H](CC(C)C)C(=O)N[C@@H](CCCCN)C(=O)N[C@@H](CCCNC(=N)N)C(=O)N[C@H](C(=O)N[C@@H](CCCCN)C(=O)N[C@H](C(=O)N[C@@H](CC(C)C)C(=O)N[C@@H](CC(C)C)C(=O)NCCCC[C@H](NC(=O)[C@H](CCCCNC(=O)[C@H](CC(C)C)NC(=O)[C@H](CC(C)C)NC(=O)[C@@H](NC(=O)[C@H](CCCCN)NC(=O)[C@@H](NC(=O)[C@H](CCCNC(=N)N)NC(=O)[C@H](CCCCN)NC(=O)[C@H](CC(C)C)NC(=O)[C@H](CC(C)C)NC(=O)CNC(=O)CCCCC)[C@@H](C)CC)[C@@H](C)O)NC(=O)[C@H](CC(C)C)NC(=O)[C@H](CC(C)C)NC(=O)[C@@H](NC(=O)[C@H](CCCCN)NC(=O)[C@@H](NC(=O)[C@H](CCCNC(=N)N)NC(=O)[C@H](CCCCN)NC(=O)[C@H](CC(C)C)NC(=O)[C@H](CC(C)C)NC(=O)CNC(=O)CCCCC)[C@@H](C)CC)[C@@H](C)O)C(N)=O)[C@@H](C)O)[C@@H](C)CC` is recorded as 13.9 µM (five bacterial species; bacterial growth).
With `O=C(CN1CCCC2=CC3CC(CN4CCCCC34)C21)Nc1ccc(Cl)cc1` (stereo not shown) the EC50 was 155 µM (vesicular stomatitis virus; pseudovirus entry; VSV G pseudovirus).
With `COc1ccc(-c2ccc3c(c2)CCC3n2ccnc2)cc1` (stereo not shown) the MIC50 was 1.1 µg/mL (≈ 3.79 µM) (Mycobacterium tuberculosis variant bovis BCG; microbial growth; BCG).
For `Cc1cccc(-c2nc(Nc3ccncn3)c3c(C)csc3n2)n1`, the MIC was 0.5 µM (≈ 0.167 µg/mL) (Moraxella catarrhalis; microbial growth, broth dilution; 1502).
For `CCC(=C(c1ccc(Cl)cc1)c1ccc(OCCCN(C)C)cc1)c1ccccc1`, the EC50 was 0.29 µg/mL (influenza A virus H1N1; cytopathic effect, visual CPE; MDCK).
`CCCCCC(=O)NCC(=O)N[C@@H](CC(C)C)C(=O)N[C@@H](CC(C)C)C(=O)N[C@@H](CCCCN)C(=O)N[C@@H](CCCNC(=N)N)C(=O)N[C@H](C(=O)N[C@@H](CCCCN)C(=O)N[C@H](C(=O)N[C@@H](CC(C)C)C(=O)N[C@@H](CC(C)C)C(N)=O)[C@@H](C)O)[C@@H](C)CC` — result for “geometric mean MIC”: 48.5 µM (five bacterial species; bacterial growth).

Excerpt of the above:
With `O=C(CN1CCCC2=CC3CC(CN4CCCCC34)C21)Nc1ccc(Cl)cc1` (stereo not shown) the EC50 was 155 µM (vesicular stomatitis virus; pseudovirus entry; VSV G pseudovirus).
